Results from different studies.
Numbered parts are unrelated; each lists some results of a single study.

Study 1 — technique: RNAcompete; molecule type: RNA; matrix: in vitro; tested at: 20 nM; setting: 7-mer, probes averaged, single round; reference: mean of 7-mers; direction: higher = stronger binding
Target: PABPC1L2, full length, GST fusion (mouse, UniProt A0ABA7IW68)
Construct (chain): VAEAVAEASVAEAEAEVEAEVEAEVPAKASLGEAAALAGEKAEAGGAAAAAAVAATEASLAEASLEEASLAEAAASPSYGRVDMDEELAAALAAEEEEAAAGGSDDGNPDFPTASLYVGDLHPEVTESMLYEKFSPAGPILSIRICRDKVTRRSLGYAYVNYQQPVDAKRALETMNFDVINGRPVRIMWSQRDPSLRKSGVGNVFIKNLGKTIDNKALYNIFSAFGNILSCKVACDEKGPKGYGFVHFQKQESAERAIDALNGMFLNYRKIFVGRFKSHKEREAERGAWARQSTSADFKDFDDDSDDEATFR
| Oligonucleotide | 7-mer Z-score |
| --- | --- |
| GACAGUG | -0.135 |
| UUUGGGA | -0.104 |
| ACAUAGC | -0.0718 |
| AUUUCUG | -0.371 |
| UUGUUAG | -0.335 |

Study 2 — technique: protein binding microarray; molecule type: double-stranded DNA, one strand shown; matrix: in vitro; tested at: not given; reference: not given; direction: higher = stronger binding
Target: Histone acetyltransferase KAT6A, both winged helices, GST fusion (KAT6A, Homo sapiens, UniProt Q92794, residues 1-181)
Setting: 8-mer, flanks averaged, mean of 2 arrays, mostly near background
Residues (chain): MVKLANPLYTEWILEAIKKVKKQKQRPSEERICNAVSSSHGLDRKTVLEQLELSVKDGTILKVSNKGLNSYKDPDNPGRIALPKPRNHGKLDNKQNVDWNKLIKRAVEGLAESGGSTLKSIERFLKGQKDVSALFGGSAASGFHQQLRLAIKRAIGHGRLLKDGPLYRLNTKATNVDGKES
| Oligonucleotide | E-score |
| --- | --- |
| AAAGGCGT | 0.0982 |
| ACGGCTCG | 0.219 |
| CCTTAGTC | -0.139 |
| TGCTTACA | -0.0102 |
| CCTTCTAG | -0.0509 |
| CACTTAAG | 0.108 |

Study 3 — technique: competition protein-binding microarray; molecule type: double-stranded DNA, one strand shown; matrix: in vitro; tested at: 2 µM; added: Cbf1 competitor, 0.05 µM; direction: higher = stronger binding
Target: Phosphate system positive regulatory protein PHO4, full length, GST-tagged (PHO4, Saccharomyces cerevisiae, UniProt P07270, residues 1-312)
Setting: whole 60-bp probe, lowest competitor level
Construct (chain): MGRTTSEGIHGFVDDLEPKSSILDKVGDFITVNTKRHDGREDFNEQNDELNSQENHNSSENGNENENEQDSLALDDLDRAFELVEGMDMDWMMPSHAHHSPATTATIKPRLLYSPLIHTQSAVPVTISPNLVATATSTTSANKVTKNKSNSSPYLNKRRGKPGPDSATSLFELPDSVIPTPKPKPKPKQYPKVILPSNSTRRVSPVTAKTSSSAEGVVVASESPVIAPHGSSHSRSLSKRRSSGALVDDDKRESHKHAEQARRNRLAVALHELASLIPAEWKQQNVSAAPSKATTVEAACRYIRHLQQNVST
| Oligonucleotide | fluorescence intensity [a.u.] |
| --- | --- |
| TATTCCATCTTTTCCCTCGTGTTGACAATAGAGTCAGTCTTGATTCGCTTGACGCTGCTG | 11300 |
| GCTTTCAGGCACTAAGACGTGCAAAGATATAAGCCAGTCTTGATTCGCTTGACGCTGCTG | 5120 |
| CGGGGTTAAGTTTGTACTGTGGGTGGCTTGCAGCAGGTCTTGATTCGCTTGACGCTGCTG | 4080 |
| AAGAACCTGCAAGGGCATGTGCGGTTGTTGGAGCGAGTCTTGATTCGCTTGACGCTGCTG | 10400 |
| CTAAAAGTGCATTACGACCTGCATCTCCAGTAGTTTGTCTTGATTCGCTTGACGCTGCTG | 4420 |

Other studies, line by line
| Molecule | target | test | test system | setting | how to read | quantity | value |
| --- | --- | --- | --- | --- | --- | --- | --- |
| PhoQ, residues 284 288 289 292 302 303 SSTMSV | PhoP, residues 12 14 15 18 19 HLGGL (Escherichia coli, UniProt P23836) | Sort-seq, measured: YFP reporter | E. coli | PhoQ-PhoP variant library, added: 10 µM Mg2+ | reference: high Mg2+ state, higher = stronger signaling | fold induction | 1.13 |

Some of these lines once more (study 1):
| Oligonucleotide | 7-mer Z-score |
| --- | --- |
| UUUGGGA | -0.104 |
| GACAGUG | -0.135 |
